Measurements of several laboratories.
“And” joins repeats or separate records; there may be more than shown. ± marks the error that the study gave.
Hrh3: Histamine H3 receptor (Hrh3, Rattus norvegicus, UniProt Q9QYN8)
Caspase-2: Caspase-2 (Homo sapiens, UniProt P42575)
Caspase-2 circularly permuted: Caspase-2, circularly permuted (Homo sapiens, UniProt P42575)
SIGMAR1: Sigma non-opioid intracellular receptor 1 (SIGMAR1, Cavia porcellus, UniProt Q60492)
TYMS: Thymidylate synthase (TYMS, Homo sapiens, UniProt P04818)
Nos2: Nitric oxide synthase, inducible (Nos2, Mus musculus, UniProt P29477)
FUT8: Alpha-(1,6)-fucosyltransferase (FUT8, Homo sapiens, UniProt Q9BYC5)
TSPO: Translocator protein (TSPO, Homo sapiens, UniProt P30536)

The Ki of Fc1cc(OCCCN2CCN(c3cccc4sccc34)CC2)ccc1CN1CCOCC1 is reported as 0.0542 µM (Hrh3; ligand displacement, radioligand; cell membranes).
For CC(=O)N[C@@H](CCC(N)=O)C(=O)N[C@@H](CC(=O)O)C(=O)N[C@H](C(=O)N[C@@H](CCCNC(=N)N)C(=O)N[C@H](C=O)CC(=O)O)[C@@H](C)O, the Ki was 0.0955 µM (Caspase-2; enzyme activity, inhibitor, fluorescence; pH 6.5).
With CNC(=O)C1CCN(c2cc(C)c(F)cc2NC(=O)c2ccc(-c3cc(O)ccc3C)c(C)c2)CC1 the Ki was 0.0088 µM (BLK (Homo sapiens, UniProt P51451); cell-free assay, TR-FRET).
OC[C@H]1[C@@H](O)[C@@H](O)CN1Cc1ccc(Br)cc1 gave a Ki of 58 µM (Golgi alpha-mannosidase IIb (Drosophila melanogaster, UniProt Q9VF33); Dixon plot; together with: pNP-Man 0.5 to 4 mM).
O=C(O)COc1cccc(NC(=O)c2cc(-c3cccc(F)c3)ccc2F)c1 gave a Ki of greater than 10 µM (PTGER1 (Homo sapiens, UniProt P34995); ligand displacement, radioligand; cell membranes).
CC[C@H](C)[C@H](NC(C)=O)C(=O)N[C@H](C(=O)N[C@H](C(=O)N[C@@H](CCCCNC(C)=O)C(=O)N[C@H](C=O)CC(=O)O)C(C)C)[C@@H](C)O has a Ki of 0.575 µM (Caspase-2 circularly permuted; enzyme activity, inhibitor; pH 6.5, 37 °C, together with: Z-VDVAD-AFC).
With Cc1cc(C(C)(C)C)ccc1OCCOCCN(C)C the Ki was 0.0008 µM (SIGMAR1; ligand displacement, radioligand).
O=C(c1ccc(=O)n(CCF)c1)C1CCN(C2Cc3ccccc3CC2O)CC1 (single isomer, unassigned; (-)) has a Ki of 5.84 µM (Tmem97 (Rattus norvegicus, UniProt Q5U3Y7); ligand displacement, radioligand).
For CSCC[C@H](NC(=O)[C@@H](N)CS)C(=O)N[C@@H](CCC(N)=O)C(=O)N[C@H](C(=O)N[C@@H](CO)C(=O)N[C@@H](CCCCN)C(=O)N[C@@H](CC(C)C)C(=O)O)[C@@H](C)O, the Ki was 19.3 ± 5.6 µM (Na(+)/H(+) exchange regulatory cofactor NHE-RF1, PDZ1 domain (NHERF1, Homo sapiens, UniProt O14745); binding to PDZ1 domain, inhibitor, fluorescence polarization).
For O=C(c1ccc(NCCF)cc1)C1CCN(C2Cc3ccccc3CC2O)CC1 (single isomer, unassigned; (+)), the Ki was 1.25 ± 0.07 µM (SIGMAR1; binding; guinea pig; together with: (+)-[3H]pentazocine).
CC(=O)N[C@@H](CC(C)C)C(=O)N[C@@H](CC(=O)O)C(=O)N[C@H](C(=O)N1CCC[C@H]1C(=O)N[C@H](C=O)CC(=O)O)C(C)C gave a Ki of 0.0132 µM (Caspase-2; enzyme activity, inhibitor, fluorescence; pH 6.5).
The Ki of COc1ccc(CCCN[C@H]2CCC[C@@H]2CN[C@@H]2CCC[C@H]2CNCCCCN[C@H]2CCC[C@@H]2CN)cc1 is reported as 9.2 µM (KDM1B (Homo sapiens, UniProt Q8NB78); enzyme activity, inhibitor).
For Clc1cc(OCCCN2CCN(c3cccc4sccc34)CC2)ccc1CN1CCOCC1, the Ki was 0.0431 µM (Hrh3; ligand displacement, radioligand; cell membranes).
CN(C)c1ccc2c(c1)C(=O)N(CCS)C2=O gave a Ki of 0.28 ± 0.01 µM (blaNDM-1 (Klebsiella pneumoniae, UniProt C7C422); enzyme activity, inhibitor; Km 0.55 µM, together with: chromacef 25 µM).
CCCCCCCCCCCCCC(=O)N[C@@H](CO)C(=O)N[C@H](C(=O)N[C@@H](Cc1ccc(O)cc1)C(=O)N[C@@H](CCCNC(=N)N)C(=O)N[C@@H](CCCNC(=N)N)C(=O)NCC(=O)N[C@@H](C)C(=O)N[C@@H](CCCNC(=N)N)C(=O)N[C@@H](CCCNC(=N)N)C(=O)N[C@@H](Cc1c[nH]c2ccccc12)C(=O)N[C@@H](CCCNC(=N)N)C(=O)N[C@@H](CCCCN)C(=O)N[C@@H](CC(C)C)C(=O)O)[C@@H](C)CC gave a Ki of 0.076 µM (PRKCZ (Homo sapiens, UniProt Q05513); enzyme activity, inhibitor; pH 7.4).
With N=C(N)Nc1nc2cc(C(F)(F)F)ccc2[nH]1 the Ki was greater than 500 µM (TYMS; inhibitor).
With Cc1cc(N)nc(C[C@H]2CNC[C@H]2OCCCCCc2cccc(F)c2)c1 the Ki was 468 µM (Nos2; enzyme activity, inhibitor; pH 7.4).
With Nc1nc2c(ncn2[C@@H]2O[C@H](COP(=O)(O)OP(=O)(O)O[C@H]3O[C@@H](CNC(=O)CCc4ccccc4)[C@@H](O)[C@@H](O)[C@@H]3F)[C@@H](O)[C@H]2O)c(=O)[nH]1 the Ki was 80.7 µM (FUT8; enzyme activity, inhibitor).
CC(=O)N[C@@H](CC(=O)O)C(=O)N[C@H](C(=O)N[C@@H](CCCNC(=N)N)C(=O)N[C@H](C=O)CC(=O)O)[C@@H](C)O has a Ki of 0.479 µM (Caspase-2 circularly permuted; enzyme activity, inhibitor; pH 6.5, 37 °C, together with: Z-VDVAD-AFC).
CCc1cc(OCCOCCN(C)C)ccc1Cl gave a Ki of 0.0005 µM (SIGMAR1; ligand displacement, radioligand).
With COc1ccc2[nH]c(-c3cccc4ccccc34)c(CCNC(=O)CI)c2n1 the Ki was 0.000794 µM (MTNR1B (Homo sapiens, UniProt P49286); ligand displacement, radioligand; cell membranes).
CC1(C)NC(N)=Nc2nc3ccccc3n21 has a Ki of greater than 500 µM (TYMS; inhibitor).
CC(Oc1cc(-c2ccccc2)nc2ncccc12)C(=O)N(C)c1ccccc1 (stereo not drawn) gave a Ki of 0.0047 µM (TSPO; cell-free assay).
For CC1(C)NC(N)=Nc2nc3c(Cl)cc(Cl)cc3n21, the Ki was greater than 500 µM (TYMS; inhibitor).
With Cc1cc(N)nc(CC2CNCC2OCCNCC(F)(F)c2ccccc2)c1 (stereo not drawn) the Ki was 85 µM (Nos2; enzyme activity, inhibitor, hemoglobin capture).
For Nc1ncnc2c1ncn2[C@H]1O[C@@H](COP(=O)(O)O)[C@H](O)[C@@H]1O, the Ki was 200 µM (AK1 (Homo sapiens, UniProt P00568); enzyme activity, competitive inhibitor; together with: D-AMP substrate, 0.2 mM ATP).
The Ki of CC(Oc1cc(-c2ccccc2)nc2ccncc12)C(=O)N(C)c1ccccc1 (stereo not drawn) is reported as 0.025 µM (TSPO; cell-free assay).
The Ki of Nc1nc2c(ncn2[C@@H]2O[C@H](COP(=O)(O)OP(=O)(O)O[C@H]3O[C@@H](CNC(=O)c4ccccc4)[C@@H](O)[C@@H](O)[C@@H]3F)[C@@H](O)[C@H]2O)c(=O)[nH]1 is reported as 7.1 µM (FUT1 (Homo sapiens, UniProt P19526); enzyme activity, inhibitor).
With CC[C@H](C)[C@H](NC(C)=O)C(=O)N[C@H](C(=O)N[C@H](C(=O)N[C@@H](CCCN)C(=O)N[C@H](C=O)CC(=O)O)C(C)C)[C@@H](C)O the Ki was 0.724 µM (Caspase-2; enzyme activity, inhibitor, fluorescence; pH 6.5).
The Ki of N=C(Cc1ccccc1)NCCC[C@H](N)C(=O)O is reported as 2400 µM (Nos2; NO production, inhibitor, hemoglobin; together with: L-arginine 10 µM).
CCCCCCCCCCCCCCCC(=O)OCCCC gave a Ki of 2.5 ± 0.01 µM (pheromone-binding protein 2 (Lymantria dispar, UniProt O16106); binding, competitive fluorescence binding; pH 7.3, pheromone-binding protein 2, together with: 1-NPN probe).
For CCC1(CC)C(=O)N(c2cccc(CN3CCN(Cc4cccc5cccnc45)CC3)c2)C1=O, the Ki was 0.0342 µM (DPP9 (Homo sapiens, UniProt Q86TI2); enzyme activity, inhibitor, fluorescence).
The Ki of Nc1nc2c(ncn2[C@@H]2O[C@H](COP(=O)(O)OP(=O)(O)O[C@H]3O[C@@H](CNC(=O)C(c4ccccc4)c4ccccc4)[C@@H](O)[C@@H](O)[C@@H]3F)[C@@H](O)[C@H]2O)c(=O)[nH]1 is reported as 173 µM (FUT8; enzyme activity, inhibitor).
CC[C@H](C)[C@H](NC(C)=O)C(=O)N[C@H](C(=O)N[C@H](C(=O)N[C@H](CCN)C(=O)N[C@H](C=O)CC(=O)O)C(C)C)[C@@H](C)O has a Ki of greater than 100 µM (Caspase-2 circularly permuted; enzyme activity, inhibitor; pH 6.5, 37 °C, together with: Z-VDVAD-AFC).
For COc1cc(CN2CCCC2)ccc1OCCN1CCN(c2cccc3sccc23)CC1, the Ki was 0.164 µM (Hrh3; ligand displacement, radioligand; cell membranes).
With CC(=O)N[C@@H](Cc1ccccc1)C(=O)N[C@@H](CC(=O)O)C(=O)N[C@H](C(=O)N1CCC[C@H]1C(=O)N[C@H](C=O)CC(=O)O)C(C)C the Ki was 0.00708 µM (Caspase-2; enzyme activity, inhibitor, fluorescence; pH 6.5).
For O=C(O)C1CC(OS(=O)(=O)c2ccc(-c3ccc(F)cc3)cc2)CN1 (stereo not drawn), the Ki was 8.07 µM and 8.1 µM (Slc1a5 (Rattus norvegicus, UniProt D3ZJ25); leak anion current, inhibitor, whole-cell patch clamp; HEK293; 0 mV, no external alanine, 140 mM NaCl external, SCN- internal).
With CC[C@H](C)[C@H](NC(=O)[C@H](CCCCN)NC(=O)[C@H](CO)NC(=O)[C@@H](NC(=O)[C@H](CCC(N)=O)NC(=O)[C@H](CCSC)NC(=O)[C@@H](N)CS)[C@@H](C)O)C(=O)O the Ki was 1700 ± 1300 µM (Na(+)/H(+) exchange regulatory cofactor NHE-RF1, PDZ2 domain (NHERF1, Homo sapiens, UniProt O14745); binding to PDZ2 domain, inhibitor, fluorescence polarization).
CC[C@H](C)[C@H](NC(C)=O)C(=O)N[C@H](C(=O)N[C@H](C(=O)N[C@@H](CN)C(=O)N[C@H](C=O)CC(=O)O)C(C)C)[C@@H](C)O has a Ki of 3.31 µM (Caspase-2 circularly permuted; enzyme activity, inhibitor; pH 6.5, 37 °C, together with: Z-VDVAD-AFC).

For quick reference, copied from above:
CCCCCCCCCCCCCCCC(=O)OCCCC gave a Ki of 2.5 ± 0.01 µM (pheromone-binding protein 2 (Lymantria dispar, UniProt O16106); binding, competitive fluorescence binding; pH 7.3, pheromone-binding protein 2, together with: 1-NPN probe).
For CCC1(CC)C(=O)N(c2cccc(CN3CCN(Cc4cccc5cccnc45)CC3)c2)C1=O, the Ki was 0.0342 µM (DPP9 (Homo sapiens, UniProt Q86TI2); enzyme activity, inhibitor, fluorescence).
The Ki of Nc1nc2c(ncn2[C@@H]2O[C@H](COP(=O)(O)OP(=O)(O)O[C@H]3O[C@@H](CNC(=O)C(c4ccccc4)c4ccccc4)[C@@H](O)[C@@H](O)[C@@H]3F)[C@@H](O)[C@H]2O)c(=O)[nH]1 is reported as 173 µM (FUT8; enzyme activity, inhibitor).
CC[C@H](C)[C@H](NC(C)=O)C(=O)N[C@H](C(=O)N[C@H](C(=O)N[C@H](CCN)C(=O)N[C@H](C=O)CC(=O)O)C(C)C)[C@@H](C)O has a Ki of greater than 100 µM (Caspase-2 circularly permuted; enzyme activity, inhibitor; pH 6.5, 37 °C, together with: Z-VDVAD-AFC).
For COc1cc(CN2CCCC2)ccc1OCCN1CCN(c2cccc3sccc23)CC1, the Ki was 0.164 µM (Hrh3; ligand displacement, radioligand; cell membranes).
With CC(=O)N[C@@H](Cc1ccccc1)C(=O)N[C@@H](CC(=O)O)C(=O)N[C@H](C(=O)N1CCC[C@H]1C(=O)N[C@H](C=O)CC(=O)O)C(C)C the Ki was 0.00708 µM (Caspase-2; enzyme activity, inhibitor, fluorescence; pH 6.5).
